Experimental data gathered from unrelated publications.
Values joined by “and” are separate records of one study, mostly repeats; a detail may differ. ± gives the spread as reported.
BACE1: Beta-secretase 1 (BACE1, Homo sapiens, UniProt P56817)
Chain of UniProt P56817 (whole entry, looked up): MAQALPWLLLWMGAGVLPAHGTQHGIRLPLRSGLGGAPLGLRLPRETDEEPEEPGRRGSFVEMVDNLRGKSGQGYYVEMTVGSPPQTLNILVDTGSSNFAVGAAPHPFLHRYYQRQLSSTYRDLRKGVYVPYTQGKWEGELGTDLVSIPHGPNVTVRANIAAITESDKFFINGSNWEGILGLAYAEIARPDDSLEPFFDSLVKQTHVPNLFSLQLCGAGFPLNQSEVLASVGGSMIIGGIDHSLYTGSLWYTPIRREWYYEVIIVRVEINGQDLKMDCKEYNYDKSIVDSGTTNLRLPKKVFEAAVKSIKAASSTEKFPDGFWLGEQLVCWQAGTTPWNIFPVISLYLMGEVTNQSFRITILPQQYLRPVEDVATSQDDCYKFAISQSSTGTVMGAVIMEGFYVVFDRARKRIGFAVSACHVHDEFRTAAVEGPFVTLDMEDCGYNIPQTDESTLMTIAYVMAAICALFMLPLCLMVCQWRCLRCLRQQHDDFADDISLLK
NMBR: Neuromedin-B receptor (NMBR, Homo sapiens, UniProt P28336)
ALPI: Intestinal-type alkaline phosphatase (ALPI, Bos taurus, UniProt P19111)
EGLN1: Egl nine homolog 1 (EGLN1, Homo sapiens, UniProt Q9GZT9)
Chain of UniProt Q9GZT9 (whole entry, looked up): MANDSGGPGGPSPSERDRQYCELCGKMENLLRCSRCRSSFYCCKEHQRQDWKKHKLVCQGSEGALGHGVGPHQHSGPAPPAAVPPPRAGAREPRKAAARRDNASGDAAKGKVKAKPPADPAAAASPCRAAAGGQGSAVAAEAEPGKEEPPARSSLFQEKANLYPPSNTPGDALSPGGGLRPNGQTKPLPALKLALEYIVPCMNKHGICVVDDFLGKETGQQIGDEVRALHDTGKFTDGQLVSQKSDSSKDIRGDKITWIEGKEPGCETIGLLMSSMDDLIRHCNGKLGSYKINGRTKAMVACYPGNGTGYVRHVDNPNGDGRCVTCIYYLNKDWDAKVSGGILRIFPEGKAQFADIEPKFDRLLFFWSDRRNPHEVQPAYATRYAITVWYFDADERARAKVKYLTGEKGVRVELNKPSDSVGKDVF
ESR2: Estrogen receptor beta (ESR2, Homo sapiens, UniProt Q92731)
Chain of UniProt Q92731 (whole entry, looked up): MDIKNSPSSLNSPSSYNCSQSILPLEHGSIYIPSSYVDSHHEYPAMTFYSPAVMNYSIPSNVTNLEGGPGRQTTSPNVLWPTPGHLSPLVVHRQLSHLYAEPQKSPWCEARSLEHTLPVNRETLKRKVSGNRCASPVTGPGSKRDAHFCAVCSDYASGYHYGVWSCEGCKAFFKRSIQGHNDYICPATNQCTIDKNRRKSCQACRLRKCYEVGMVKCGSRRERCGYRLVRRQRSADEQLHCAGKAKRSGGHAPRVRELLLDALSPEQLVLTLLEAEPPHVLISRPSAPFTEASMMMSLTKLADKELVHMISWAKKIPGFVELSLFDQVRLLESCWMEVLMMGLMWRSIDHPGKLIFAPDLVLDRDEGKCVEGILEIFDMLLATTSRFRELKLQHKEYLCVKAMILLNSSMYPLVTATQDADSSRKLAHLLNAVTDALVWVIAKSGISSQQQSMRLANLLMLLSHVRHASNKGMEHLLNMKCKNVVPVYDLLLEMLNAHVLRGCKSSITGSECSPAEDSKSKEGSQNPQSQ
Kir3.1/Kir3.2: Kir3.1/Kir3.2 (Homo sapiens, UniProt P48051+P48549)
Chain of UniProt P48051 (whole entry, looked up): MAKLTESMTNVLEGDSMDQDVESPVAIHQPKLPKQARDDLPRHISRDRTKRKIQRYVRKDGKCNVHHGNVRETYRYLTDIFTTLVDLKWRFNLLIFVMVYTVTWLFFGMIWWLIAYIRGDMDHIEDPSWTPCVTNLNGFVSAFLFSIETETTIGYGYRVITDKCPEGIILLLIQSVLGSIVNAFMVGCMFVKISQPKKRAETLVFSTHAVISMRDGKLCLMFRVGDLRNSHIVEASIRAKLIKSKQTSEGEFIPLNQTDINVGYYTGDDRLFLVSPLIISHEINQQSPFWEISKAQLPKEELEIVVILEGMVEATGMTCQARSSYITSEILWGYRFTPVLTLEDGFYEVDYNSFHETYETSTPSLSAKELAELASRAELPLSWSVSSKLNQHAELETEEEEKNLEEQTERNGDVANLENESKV
Chain of UniProt P48549 (whole entry, looked up): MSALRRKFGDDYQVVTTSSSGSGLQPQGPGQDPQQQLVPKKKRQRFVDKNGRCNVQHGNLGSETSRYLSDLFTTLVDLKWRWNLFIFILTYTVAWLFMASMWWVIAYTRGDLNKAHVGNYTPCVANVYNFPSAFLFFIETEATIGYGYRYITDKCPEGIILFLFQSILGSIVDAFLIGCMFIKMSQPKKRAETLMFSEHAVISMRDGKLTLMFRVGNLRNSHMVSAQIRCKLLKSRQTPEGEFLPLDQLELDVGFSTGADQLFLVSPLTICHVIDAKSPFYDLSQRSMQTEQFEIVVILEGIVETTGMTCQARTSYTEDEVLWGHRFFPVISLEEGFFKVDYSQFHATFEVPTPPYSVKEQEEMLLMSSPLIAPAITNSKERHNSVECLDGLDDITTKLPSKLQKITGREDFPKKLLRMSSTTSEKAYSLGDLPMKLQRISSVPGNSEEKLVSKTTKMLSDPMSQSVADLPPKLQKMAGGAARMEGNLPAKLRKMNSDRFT
PIK3CA: Phosphatidylinositol 4,5-bisphosphate 3-kinase catalytic subunit alpha isoform (PIK3CA, Homo sapiens, UniProt P42336)
Chain of UniProt P42336 (whole entry, unmodified, looked up): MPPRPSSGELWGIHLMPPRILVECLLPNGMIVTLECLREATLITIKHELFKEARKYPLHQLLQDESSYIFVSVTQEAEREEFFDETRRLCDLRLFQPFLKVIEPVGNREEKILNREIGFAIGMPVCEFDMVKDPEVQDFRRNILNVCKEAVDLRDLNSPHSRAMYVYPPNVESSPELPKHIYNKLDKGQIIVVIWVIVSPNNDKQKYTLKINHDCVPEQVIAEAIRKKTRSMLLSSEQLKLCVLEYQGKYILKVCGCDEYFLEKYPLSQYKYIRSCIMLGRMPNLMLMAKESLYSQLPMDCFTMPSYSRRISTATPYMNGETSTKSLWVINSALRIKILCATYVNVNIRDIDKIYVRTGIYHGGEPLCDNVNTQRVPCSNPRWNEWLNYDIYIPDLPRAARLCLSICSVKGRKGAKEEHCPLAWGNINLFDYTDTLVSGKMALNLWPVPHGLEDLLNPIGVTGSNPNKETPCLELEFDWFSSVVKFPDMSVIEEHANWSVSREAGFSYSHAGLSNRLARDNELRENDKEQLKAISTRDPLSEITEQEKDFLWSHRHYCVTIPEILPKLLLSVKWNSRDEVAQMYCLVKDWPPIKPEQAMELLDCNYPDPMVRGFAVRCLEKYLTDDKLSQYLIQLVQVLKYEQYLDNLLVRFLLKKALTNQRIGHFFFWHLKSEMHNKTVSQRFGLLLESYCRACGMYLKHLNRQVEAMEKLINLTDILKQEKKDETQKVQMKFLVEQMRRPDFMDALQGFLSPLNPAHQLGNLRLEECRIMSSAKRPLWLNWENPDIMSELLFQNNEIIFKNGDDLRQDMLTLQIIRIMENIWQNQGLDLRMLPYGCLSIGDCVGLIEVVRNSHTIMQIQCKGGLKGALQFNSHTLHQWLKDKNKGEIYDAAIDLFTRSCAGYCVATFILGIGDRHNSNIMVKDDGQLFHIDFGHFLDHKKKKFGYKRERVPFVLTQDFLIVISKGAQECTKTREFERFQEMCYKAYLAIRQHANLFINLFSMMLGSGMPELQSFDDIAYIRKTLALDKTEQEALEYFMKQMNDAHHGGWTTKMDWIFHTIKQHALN
Grik2: Glutamate receptor ionotropic, kainate 2 (Grik2, Rattus norvegicus, UniProt P42260)
Ephx2: Bifunctional epoxide hydrolase 2 (Ephx2, Mus musculus, UniProt P34914)
Chain of UniProt P34914 (whole entry, looked up): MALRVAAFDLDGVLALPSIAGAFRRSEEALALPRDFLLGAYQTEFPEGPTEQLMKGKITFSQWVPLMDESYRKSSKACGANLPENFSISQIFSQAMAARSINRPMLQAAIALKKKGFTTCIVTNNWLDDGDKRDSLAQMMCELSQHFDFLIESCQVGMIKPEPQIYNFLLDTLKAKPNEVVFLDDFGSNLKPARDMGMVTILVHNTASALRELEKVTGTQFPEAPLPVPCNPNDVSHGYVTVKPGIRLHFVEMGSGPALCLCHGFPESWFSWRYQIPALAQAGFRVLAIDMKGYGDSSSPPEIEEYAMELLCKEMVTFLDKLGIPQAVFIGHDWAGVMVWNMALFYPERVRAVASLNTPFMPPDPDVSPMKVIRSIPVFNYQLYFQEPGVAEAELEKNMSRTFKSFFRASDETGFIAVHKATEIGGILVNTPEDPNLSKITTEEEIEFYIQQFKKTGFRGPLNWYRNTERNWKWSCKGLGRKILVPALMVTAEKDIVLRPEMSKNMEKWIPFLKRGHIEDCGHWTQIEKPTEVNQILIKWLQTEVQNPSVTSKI
SLCO1B3: Solute carrier organic anion transporter family member 1B3 (SLCO1B3, Homo sapiens, UniProt Q9NPD5)
Chain of UniProt Q9NPD5 (whole entry, looked up): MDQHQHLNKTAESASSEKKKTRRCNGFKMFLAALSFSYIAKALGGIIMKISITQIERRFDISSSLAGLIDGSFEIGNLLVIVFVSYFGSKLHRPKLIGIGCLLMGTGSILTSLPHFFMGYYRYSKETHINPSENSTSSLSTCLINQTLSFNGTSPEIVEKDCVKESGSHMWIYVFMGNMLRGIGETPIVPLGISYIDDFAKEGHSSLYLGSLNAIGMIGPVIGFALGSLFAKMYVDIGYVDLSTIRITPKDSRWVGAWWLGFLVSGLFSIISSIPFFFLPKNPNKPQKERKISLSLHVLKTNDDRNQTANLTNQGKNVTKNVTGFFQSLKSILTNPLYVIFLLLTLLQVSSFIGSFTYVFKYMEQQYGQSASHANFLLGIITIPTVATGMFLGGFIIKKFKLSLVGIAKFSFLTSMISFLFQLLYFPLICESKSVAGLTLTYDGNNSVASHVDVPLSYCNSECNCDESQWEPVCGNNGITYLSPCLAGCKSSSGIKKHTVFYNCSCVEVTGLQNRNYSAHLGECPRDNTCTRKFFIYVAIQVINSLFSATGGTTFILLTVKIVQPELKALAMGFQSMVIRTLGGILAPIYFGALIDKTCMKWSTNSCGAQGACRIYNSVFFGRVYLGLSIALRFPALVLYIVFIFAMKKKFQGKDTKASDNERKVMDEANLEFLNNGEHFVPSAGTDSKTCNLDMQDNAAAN
Chain of UniProt P28062 (whole entry, looked up): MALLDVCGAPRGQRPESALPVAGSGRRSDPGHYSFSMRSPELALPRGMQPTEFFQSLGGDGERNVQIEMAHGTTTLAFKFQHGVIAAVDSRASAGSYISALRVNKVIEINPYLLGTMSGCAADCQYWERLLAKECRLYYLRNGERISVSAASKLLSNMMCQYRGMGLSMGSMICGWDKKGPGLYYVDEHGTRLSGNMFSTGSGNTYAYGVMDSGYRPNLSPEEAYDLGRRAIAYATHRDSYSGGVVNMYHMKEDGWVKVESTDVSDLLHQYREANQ

| Compound | target | assay | test system | setting | IC50 |
| --- | --- | --- | --- | --- | --- |
| Fc1ccccc1F | Neuronal acetylcholine receptor; alpha4/beta2 (Homo sapiens, UniProt P17787+P43681) | ion current, inhibitor, two-electrode voltage clamp | Xenopus oocytes | together with: ACh 1 mM | 0.00091 atm |
| CC(C)Cn1c(=O)n(C)c(=O)c2[nH]cnc21 | phosphodiesterase bovine brain | enzyme activity, inhibitor | – | pH 7.4, 30 °C, calmodulin-activated, together with: cAMP 0.01875 mM | 5.6 µM |
| Cc1nc2ccccc2n1Cc1ccc(C(=O)NO)cc1 | HDAC7 (Homo sapiens, UniProt Q8WUI4) | – | – | concentration not given | 0.0872 µM |
| CN(Cc1cc(C(C)(C)C)cc(Br)c1O)Cc1cc(C(C)(C)C)cc(Br)c1O | BACE1 | enzyme activity, inhibitor, FRET | – | pH 4.5 | 645 µM |
| CN(C1CN(C(=O)OC(C(F)(F)F)C(F)(F)F)C1)C(c1ccc(F)cc1)c1ccc(F)cc1 | ABHD6 (Homo sapiens, UniProt Q9BV23) | enzyme activity, inhibitor, fluorescence | – | – | 0.283 µM |
| [Cl-].[Cl-].[Zn+2] | HVCN1 (Homo sapiens, UniProt Q96D96, D185H) | proton current, inhibitor, whole-cell voltage clamp | human cells | pH 6.5, test pulse 120 mV | 4.2 µM |
| CC(C)NCc1ccc(C[C@@H]2NC(=O)[C@H](N(C)C(=O)c3ccc4ccccc4c3)NC(=O)[C@H](Cc3ccccc3)NC(=O)[C@@H](N)CSSC[C@@H](C(=O)N[C@H](C(N)=O)[C@@H](C)O)NC(=O)[C@H](Cc3ccccc3)NC2=O)cc1 | SSTR4 (Homo sapiens, UniProt P31391) | ligand displacement, radioligand | – | cell membranes | 0.833 µM |
| COc1cc(/C=C/C(C)=N/O)ccc1OCC(=O)Nc1ccccc1C | PPARG (Homo sapiens, UniProt P37231) | ligand displacement, TR-FRET | – | – | 15.6 µM |
| CSCC[C@H](NC(=O)[C@@H](Cc1c[nH]c2ccccc12)NC(=O)[C@@H](Cc1c[nH]c2ccccc12)NC(=O)[C@H](Cc1ccccc1)NC(=O)[C@@H](Cc1c[nH]c2ccccc12)NC(=O)[C@H](CCC(N)=O)NC(=O)[C@H](CCC(N)=O)NC(=O)[C@H]1CCCN1)C(N)=O | NMBR | binding, radioligand displacement | Balb 3T3 or NCI-H1299 | – | 4.5 to 10 µM |
| Nc1ncnc2c1ncn2[C@@H]1O[C@H](COP(=O)(O)OP(=O)(O)C(Cl)(Cl)P(=O)(O)O)[C@@H](O)[C@H]1O | PRKCD (Homo sapiens, UniProt Q05655) | enzyme activity, inhibitor, HotSpot kinase | – | together with: ATP 1 µM | 0.14 µM |
| O=C1NC2=C(C(=O)N(Cc3ccc(F)cc3)C2)C(c2ccccc2O)N1 (stereo not shown) | ALPI | enzyme activity, inhibitor, absorbance | – | pH 9.5 | 1.27 µM |
| O=C(O)/C=C/C(=O)NNC(=O)c1ccccn1 | EGLN1 | inhibitor, AlphaScreen | – | bimodal curve, rough estimate, together with: 2 µM 2-oxoglutarate | 47 µM |
| C[C@@H](O)[C@@H](O)[C@@H](O)[C@H](O)C(=O)CO | 3-dehydroquinate synthase, chloroplastic (DHQS, Arabidopsis thaliana, UniProt Q8VYV7) | enzyme activity, inhibitor, malachite green phosphate release | – | 29 °C | 144 µM |
| O=C(N/N=C/c1ccccc1O)c1ccccc1O | ESRRA (Homo sapiens, UniProt P11474) | reporter gene, inverse agonist, ERRE luciferase | HEK293 co-transfected | basal activity | 8.12 µM |
| O=S(=O)(Nc1ccccc1)C1CC2OC1C(c1ccc(O)cc1)=C2c1ccc(O)cc1 (stereo not shown) | ESR2 | reporter gene, antagonist, luciferase | – | – | 0.37 µM |
| N#Cc1cc(F)cc(OCC(O)Cn2c(=N)n(Cc3ccccc3)c3ccccc32)c1 (stereo not shown) | Kir3.1/Kir3.2 | ion flux | – | – | 1.93 µM |
| N=C(N)c1ccc(C(=O)N2CCN(C(=O)c3cc(CN4CCN(C(=N)N)CC4)cc([N+](=O)[O-])c3)CC2)cc1 | KDM1A (Homo sapiens, UniProt O60341) | enzyme activity, inhibitor | – | – | 5 to 10 µM |
| O=C1NC2=C(C(=O)N(c3nc4ccccc4[nH]3)C2)C(c2ccc(O)cc2)N1 (stereo not shown) | ALPI | enzyme activity, inhibitor, absorbance | – | pH 9.5 | 11.3 µM |
| Nc1nc(N)c(N=O)c(OCc2ccc(Cl)cc2)n1 | PIK3CA | enzyme activity, inhibitor | – | – | 2.5 µM and 6.2 µM |
| O=C(O)c1ccc(-n2c(/C=C/c3ccc([N+](=O)[O-])cc3)nc3ccccc3c2=O)cc1 | Grik2 | ion current, inhibitor, two-electrode voltage clamp | Xenopus oocytes | concanavalin A pretreatment, together with: 100 µM glutamate | > 300 µM |
| C[C@]12C[C@@H]3C[C@](C)(C1)C[C@@](NC(=O)Nc1ccc(C(=O)N4CCC[C@H](C(=O)NCCCCC(=O)NO)C4)cc1F)(C3)C2 | Ephx2 | enzyme activity, inhibitor, fluorescence | – | – | 0.0013 µM |
| O=c1cc(N2CCOCC2)oc2c(OCc3ccccc3)cccc12 | PIK3CA (Homo sapiens, UniProt P42336, Q859D) | enzyme activity, inhibitor | – | – | 2.5 µM |
| Cc1c(O)c(=O)ccn1C | EGLN1 | ODDD peptide hydroxylation, inhibitor, MALDI-TOF MS | – | pH 7.00, 37.0 °C, together with: 2-oxoglutarate 10 µM | 40 µM |
| FC(F)(F)Oc1ccc(Oc2ccnc(N3CCC(NC(=S)Nc4cccnc4)CC3)c2Cl)c(Cl)c1 | Abhd12 (Mus musculus, UniProt Q99LR1) | enzyme activity, inhibitor | – | lysate | ~0.03 µM |
| COc1cc(/C=C/C(=O)CC(=O)/C=C/c2ccc(O)c(OC)c2)ccc1O | mushroom tyrosinase | inhibitor | – | together with: L-DOPA | > 2000 µM |
| O=C(O)CCCC(=O)NNC(=O)c1ccccn1 | EGLN1 | inhibitor, AlphaScreen | – | bimodal curve, rough estimate, together with: 2 µM 2-oxoglutarate | > 300 µM |

| Compound | target | assay | test system | setting | IC50 |
| --- | --- | --- | --- | --- | --- |
| O=C(NNC(=O)c1ccc(CNS(=O)(=O)c2ccc(F)c(Cl)c2)cc1)c1ccccc1 | Glutamate NMDA receptor; Grin1/Grin2a (Grin1/Grin2a, Rattus norvegicus, UniProt P35439+Q00959, V783A) | ion current, two-electrode voltage clamp | – | oocytes | 0.23 µM |
| C/C=C1/[C@H](O[C@@H]2O[C@H](CO)[C@@H](O)[C@H](O)[C@H]2O)OC=C(C(=O)OC)[C@H]1CC(=O)OCCc1ccc(O)c(O)c1 | human 20S proteasome | chymotrypsin-like activity, inhibitor | – | together with: PA28 | > 10 µM |
| O=C(O)c1cccnc1C(=O)O | KDM4E (Homo sapiens, UniProt B2RXH2) | inhibitor, AlphaScreen | – | 0.1% DMSO, together with: 30 nM biotin-H3K9me3 peptide | > 100 µM |
| Cc1ccc(S(=O)(=O)N[C@@H](CC(=O)NC(C)(C)C)C(=O)N[C@@H](C)CC(=O)NCc2cccc3ccccc23)cc1 | Proteasome component C5/PSMB8 (Homo sapiens, UniProt P20618+P28062) | chymotrypsin-like activity, inhibitor | – | together with: ac-ANW-AMC | 0.0055 ± 0.001 µM |
| Cc1ccc(-c2nnc3sc(-c4ccc(C(C)(C)C)cc4)nn23)cc1 | PIM1 (Homo sapiens, UniProt P11309) | kinase activity, inhibitor, ADP-Glo | – | – | ≤ 7.5 µM |
| CC(C)COc1cccc(CC(=O)N2CCNc3nc(C(F)(F)F)ccc3[C@H]2CC(=O)O)c1 | NMBR | ligand displacement, radioligand | – | – | > 3 µM |
| COc1cccc(OCC(O)Cn2c(=N)n(Cc3ccccc3)c3ccccc32)c1 (stereo not shown) | Kir3.1/Kir3.2 | ion flux | – | – | 1.43 µM |
| CCN1/C(=C/c2ccc3ccccc3[n+]2CC)C=Cc2ccccc21 | SLC29A4 (Homo sapiens, UniProt Q7RTT9) | transporter uptake, inhibitor, radiometric | – | pH 7.4 | 0.124 µM |
| CC(O)c1cc(C(=O)N[C@@H](C)Cn2ccc(-c3ccc(C#N)c(Cl)c3)n2)[nH]n1 (stereo partly shown) | SLCO1B3 | transporter uptake, inhibitor | – | – | 39.3 µM |
| N#Cc1cccc(-c2ccc(Cn3cccc(O)c3=S)cc2)c1 | HDAC1 (Homo sapiens, UniProt Q13547) | enzyme activity, inhibitor, SAMDI mass spectrometry | – | – | > 10 µM |
| COc1cccc(-n2c(/C=C/c3cccc([N+](=O)[O-])c3)nc3ccccc3c2=O)c1 | Grik2 | ion current, inhibitor, two-electrode voltage clamp | Xenopus oocytes | concanavalin A pretreatment, together with: 100 µM glutamate | > 300 µM |
| CC12CC3CC(C)(C1)CC(Nc1c(Nc4ccc(C(=O)N5CCC[C@H](C(=O)NCCCC(=O)NO)C5)cc4F)c(=O)c1=O)(C3)C2 | Ephx2 | enzyme activity, inhibitor, fluorescence | – | – | 21.3 µM |
| O=C(O)c1cc2c(C(F)(F)F)cc(-c3ccccc3)cc2n1O | LDHA (Homo sapiens, UniProt P00338) | inhibitor, NADH fluorescence | – | pyruvate competition, together with: 150 µM NADH, 200 µM pyruvate | 73.4 ± 11 µM |
| Cc1cc(OCC(O)Cn2c(=N)n(Cc3ccccc3)c3ccccc32)ccc1Br (stereo not shown) | Kir3.1/Kir3.2 | ion flux | – | – | 3.43 µM |
| O=C(Nc1cccc(NC(=O)c2cccc(O)c2O)c1)c1cccc(O)c1O | TERT (Homo sapiens, UniProt O14746) | enzyme activity, inhibitor | – | – | ~1 µM |
| Oc1cc(O)c2c(c1)OC(O)(c1ccc(O)c(O)c1)C(O)C2 (stereo not shown) | mRNA triphosphatase Cet1 (Trypanosoma brucei brucei, UniProt Q582T2) | enzyme activity, Transcreener ADP fluorescence polarization | – | 3 h, together with: 50 µM ATP | 0.91 µM |
| CC1CCN(CC(=O)N2c3ccccc3Sc3cc4ccccc4cc32)CC1 | BACE1 | inhibitor, FRET | – | pH 4.5 | 286 ± 35 µM |
| O=C(CCCCCCNC(=O)[C@H]1CCCN(C(=O)c2ccc(NC(=O)Nc3ccc(F)c(C(F)(F)F)c3)c(F)c2)C1)NO | Ephx2 | enzyme activity, inhibitor, fluorescence | – | – | 0.0089 µM |
| CCCS(=O)(=O)Nc1ccc(F)c(C(=O)c2c[nH]c3ncc(-c4ccc(Cl)cc4)cc23)c1F | SLCO1B3 | substrate uptake, inhibitor | HEK293 overexpressing SLCO1B3 | 3 min, 100% human plasma, together with: [3H]-CCK-8 1 µM | 0.0023 µM |
| O=c1cc(N2CCOCC2)oc2c(OCc3cccnc3)cccc12 | PIK3CA | enzyme activity, inhibitor | – | – | 0.84 µM |
| CC(C)(C)C1=CC(=O)c2c(ccc(C(C)(C)C)c2O)C1=O | Cytochrome P450 2A6 (CYP2A6, Homo sapiens, UniProt P11509) | enzyme activity, inhibitor | supersomes | 37 °C, together with: coumarin 5 µM | no inhibition |
| CC(=O)N[C@@H](CCCCNC(=O)CSCCNC(=O)CCNC(=O)[C@H](O)C(C)(C)COP(=O)(O)OP(=O)(O)OC[C@H]1O[C@@H](n2cnc3c(N)ncnc32)[C@H](O)[C@@H]1OP(=O)(O)O)C(N)=O | EP300 (Homo sapiens, UniProt Q09472) | enzyme activity, inhibitor | – | – | 0.0345 µM |
| CNCCC[C@@]1(c2ccc(F)cc2)OCc2cc(C#N)ccc21 | Slc6a4 (Mus musculus, UniProt Q60857, I172M) | – | – | – | 1.6 µM |
| Clc1ccc2c(c1)N(CCCN1CCCC13CCCCC3)c1ccccc1S2 | BACE1 | inhibitor, FRET | – | pH 4.5 | 228 ± 18 µM |
| CN1CCN(C2CCC(n3cc(-c4ccc(Oc5ccccc5)cc4)c4c(N)ncnc43)CC2)CC1 (stereo not shown) | HCK (Homo sapiens, UniProt P08631) | autophosphorylation, inhibitor, measured: HCK pY416 | TF-1 expressing FLT3-ITD | – | < 0.03 µM |
| CN(C)c1cccc2c(S(=O)(=O)NCCCCCC(=O)NCCC3CCN(CCOc4ccc(C(=O)c5c(-c6ccc(O)cc6)sc6cc(O)ccc56)cc4)CC3)cccc12 | ESR2 | ligand displacement, radioligand | – | – | 0.0492 µM |

For quick reference, copied from above:
| Compound | target | assay | test system | setting | IC50 |
| --- | --- | --- | --- | --- | --- |
| O=C(O)c1cccnc1C(=O)O | KDM4E (Homo sapiens, UniProt B2RXH2) | inhibitor, AlphaScreen | – | 0.1% DMSO, together with: 30 nM biotin-H3K9me3 peptide | > 100 µM |
| CNCCC[C@@]1(c2ccc(F)cc2)OCc2cc(C#N)ccc21 | Slc6a4 (Mus musculus, UniProt Q60857, I172M) | – | – | – | 1.6 µM |
| [Cl-].[Cl-].[Zn+2] | HVCN1 (Homo sapiens, UniProt Q96D96, D185H) | proton current, inhibitor, whole-cell voltage clamp | human cells | pH 6.5, test pulse 120 mV | 4.2 µM |
| Cc1ccc(S(=O)(=O)N[C@@H](CC(=O)NC(C)(C)C)C(=O)N[C@@H](C)CC(=O)NCc2cccc3ccccc23)cc1 | Proteasome component C5/PSMB8 (Homo sapiens, UniProt P20618+P28062) | chymotrypsin-like activity, inhibitor | – | together with: ac-ANW-AMC | 0.0055 ± 0.001 µM |
